# Measured values pooled from the literature.
# “And” joins repeats or separate records; there may be more than shown. Numbers after ± are the reported error.
# Oprd1: Delta-type opioid receptor (Oprd1, Rattus norvegicus, UniProt P33533)
# Chain of UniProt Q00987 (whole entry, looked up): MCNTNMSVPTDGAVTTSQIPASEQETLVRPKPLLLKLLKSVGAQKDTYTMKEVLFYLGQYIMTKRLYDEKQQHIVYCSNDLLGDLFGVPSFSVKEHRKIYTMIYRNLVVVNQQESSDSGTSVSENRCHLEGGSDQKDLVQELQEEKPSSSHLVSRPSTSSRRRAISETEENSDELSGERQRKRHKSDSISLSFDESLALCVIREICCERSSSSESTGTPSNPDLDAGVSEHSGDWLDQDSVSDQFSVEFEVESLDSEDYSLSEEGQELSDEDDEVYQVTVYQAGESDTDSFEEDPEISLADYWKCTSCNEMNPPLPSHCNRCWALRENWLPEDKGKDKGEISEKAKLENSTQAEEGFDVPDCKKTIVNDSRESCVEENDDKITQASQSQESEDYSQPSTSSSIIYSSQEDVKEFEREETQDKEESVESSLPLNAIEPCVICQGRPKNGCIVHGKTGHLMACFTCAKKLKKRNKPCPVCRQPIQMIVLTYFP
# Chain of UniProt P33533 (whole entry, looked up): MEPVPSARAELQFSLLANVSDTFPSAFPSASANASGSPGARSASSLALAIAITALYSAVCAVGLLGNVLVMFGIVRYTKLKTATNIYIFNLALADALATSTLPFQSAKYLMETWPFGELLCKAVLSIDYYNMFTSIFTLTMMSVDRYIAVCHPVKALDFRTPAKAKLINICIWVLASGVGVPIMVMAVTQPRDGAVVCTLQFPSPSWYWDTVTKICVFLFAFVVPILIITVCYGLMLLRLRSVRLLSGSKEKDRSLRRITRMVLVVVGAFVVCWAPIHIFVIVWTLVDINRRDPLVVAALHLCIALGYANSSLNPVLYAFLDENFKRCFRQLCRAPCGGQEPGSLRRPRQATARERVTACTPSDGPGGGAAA
# Chain of UniProt P62813 (whole entry, looked up): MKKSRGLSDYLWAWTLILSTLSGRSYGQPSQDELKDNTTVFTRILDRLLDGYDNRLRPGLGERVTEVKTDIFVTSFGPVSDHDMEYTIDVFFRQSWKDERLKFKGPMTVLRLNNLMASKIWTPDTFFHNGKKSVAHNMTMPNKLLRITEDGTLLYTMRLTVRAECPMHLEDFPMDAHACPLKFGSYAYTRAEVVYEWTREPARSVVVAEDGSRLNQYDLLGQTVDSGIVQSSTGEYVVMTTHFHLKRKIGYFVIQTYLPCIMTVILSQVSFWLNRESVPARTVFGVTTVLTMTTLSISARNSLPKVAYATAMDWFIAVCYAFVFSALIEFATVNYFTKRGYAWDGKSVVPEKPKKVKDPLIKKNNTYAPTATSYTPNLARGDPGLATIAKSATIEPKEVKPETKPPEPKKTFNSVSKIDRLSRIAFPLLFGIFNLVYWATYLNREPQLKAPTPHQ
# Chain of UniProt Q007T0 (whole entry, looked up): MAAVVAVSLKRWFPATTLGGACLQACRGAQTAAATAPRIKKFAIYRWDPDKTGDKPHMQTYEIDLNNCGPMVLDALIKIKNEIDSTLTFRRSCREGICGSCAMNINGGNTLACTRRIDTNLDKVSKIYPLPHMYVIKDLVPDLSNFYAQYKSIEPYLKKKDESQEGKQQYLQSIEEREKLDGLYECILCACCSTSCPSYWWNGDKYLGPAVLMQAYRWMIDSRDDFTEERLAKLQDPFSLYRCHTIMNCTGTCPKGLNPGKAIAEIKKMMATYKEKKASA
# Chain of UniProt D0VWV4 (whole entry, looked up): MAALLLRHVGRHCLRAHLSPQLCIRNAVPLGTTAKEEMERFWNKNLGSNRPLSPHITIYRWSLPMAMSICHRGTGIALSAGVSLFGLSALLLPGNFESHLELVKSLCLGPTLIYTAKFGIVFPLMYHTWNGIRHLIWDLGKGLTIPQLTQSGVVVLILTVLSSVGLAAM
# Chain of UniProt Q9UH17 (whole entry, looked up): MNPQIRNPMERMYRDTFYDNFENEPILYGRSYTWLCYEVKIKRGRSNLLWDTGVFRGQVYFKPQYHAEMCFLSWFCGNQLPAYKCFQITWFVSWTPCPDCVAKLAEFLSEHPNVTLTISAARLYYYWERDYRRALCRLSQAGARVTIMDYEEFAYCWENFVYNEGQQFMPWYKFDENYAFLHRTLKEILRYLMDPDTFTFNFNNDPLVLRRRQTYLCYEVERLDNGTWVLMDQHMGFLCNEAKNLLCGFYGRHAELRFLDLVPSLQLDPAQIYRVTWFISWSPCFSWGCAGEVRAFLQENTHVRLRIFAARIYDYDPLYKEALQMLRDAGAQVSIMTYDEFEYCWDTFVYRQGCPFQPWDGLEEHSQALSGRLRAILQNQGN
# Chain of UniProt A5GZW8 (whole entry, looked up): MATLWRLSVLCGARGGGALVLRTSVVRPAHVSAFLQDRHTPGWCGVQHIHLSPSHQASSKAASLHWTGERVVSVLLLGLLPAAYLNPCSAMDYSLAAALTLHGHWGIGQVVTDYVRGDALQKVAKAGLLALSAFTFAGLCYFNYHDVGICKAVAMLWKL
# Chain of UniProt P18508 (whole entry, looked up): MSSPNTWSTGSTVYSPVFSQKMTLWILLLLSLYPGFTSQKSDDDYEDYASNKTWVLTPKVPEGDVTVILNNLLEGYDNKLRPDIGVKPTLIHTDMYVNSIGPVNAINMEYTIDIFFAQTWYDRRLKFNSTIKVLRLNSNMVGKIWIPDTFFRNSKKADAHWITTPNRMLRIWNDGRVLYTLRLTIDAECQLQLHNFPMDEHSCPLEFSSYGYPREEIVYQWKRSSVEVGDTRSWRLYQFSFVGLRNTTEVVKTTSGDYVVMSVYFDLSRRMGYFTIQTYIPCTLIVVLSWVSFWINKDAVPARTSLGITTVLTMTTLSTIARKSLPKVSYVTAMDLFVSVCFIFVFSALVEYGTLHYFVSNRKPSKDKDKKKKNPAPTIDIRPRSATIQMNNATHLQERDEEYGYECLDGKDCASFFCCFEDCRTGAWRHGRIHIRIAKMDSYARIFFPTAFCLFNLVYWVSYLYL
# Chain of UniProt Q9QYR9 (whole entry, looked up): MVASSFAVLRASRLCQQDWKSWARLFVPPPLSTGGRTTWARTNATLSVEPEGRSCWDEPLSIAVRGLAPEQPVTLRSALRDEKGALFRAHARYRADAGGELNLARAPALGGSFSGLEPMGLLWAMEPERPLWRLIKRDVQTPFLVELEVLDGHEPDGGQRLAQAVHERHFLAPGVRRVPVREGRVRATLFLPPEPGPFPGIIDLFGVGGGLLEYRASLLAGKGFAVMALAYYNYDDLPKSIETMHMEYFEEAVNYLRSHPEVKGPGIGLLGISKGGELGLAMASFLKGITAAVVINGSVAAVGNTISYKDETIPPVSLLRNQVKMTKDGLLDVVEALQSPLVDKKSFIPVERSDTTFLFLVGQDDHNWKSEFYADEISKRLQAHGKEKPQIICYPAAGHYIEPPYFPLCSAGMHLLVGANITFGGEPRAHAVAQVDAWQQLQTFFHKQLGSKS
# Chain of UniProt P22303 (whole entry, looked up): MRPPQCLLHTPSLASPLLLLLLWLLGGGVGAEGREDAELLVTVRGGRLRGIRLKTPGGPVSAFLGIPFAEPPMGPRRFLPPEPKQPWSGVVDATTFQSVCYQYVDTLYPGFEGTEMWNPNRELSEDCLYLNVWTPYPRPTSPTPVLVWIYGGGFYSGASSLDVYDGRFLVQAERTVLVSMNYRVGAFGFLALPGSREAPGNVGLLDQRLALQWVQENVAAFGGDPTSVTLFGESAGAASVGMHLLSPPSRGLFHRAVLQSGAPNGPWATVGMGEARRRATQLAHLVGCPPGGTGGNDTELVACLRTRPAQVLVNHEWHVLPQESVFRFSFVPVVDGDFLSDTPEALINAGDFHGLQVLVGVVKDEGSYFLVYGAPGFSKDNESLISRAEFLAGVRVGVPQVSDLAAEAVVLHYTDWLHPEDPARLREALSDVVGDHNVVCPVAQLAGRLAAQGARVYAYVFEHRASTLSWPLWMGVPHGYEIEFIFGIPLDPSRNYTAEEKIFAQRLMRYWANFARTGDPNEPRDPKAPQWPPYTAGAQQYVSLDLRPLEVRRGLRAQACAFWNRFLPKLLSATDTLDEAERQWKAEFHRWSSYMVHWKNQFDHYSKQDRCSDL
# Chain of UniProt P20273 (whole entry, unmodified, looked up): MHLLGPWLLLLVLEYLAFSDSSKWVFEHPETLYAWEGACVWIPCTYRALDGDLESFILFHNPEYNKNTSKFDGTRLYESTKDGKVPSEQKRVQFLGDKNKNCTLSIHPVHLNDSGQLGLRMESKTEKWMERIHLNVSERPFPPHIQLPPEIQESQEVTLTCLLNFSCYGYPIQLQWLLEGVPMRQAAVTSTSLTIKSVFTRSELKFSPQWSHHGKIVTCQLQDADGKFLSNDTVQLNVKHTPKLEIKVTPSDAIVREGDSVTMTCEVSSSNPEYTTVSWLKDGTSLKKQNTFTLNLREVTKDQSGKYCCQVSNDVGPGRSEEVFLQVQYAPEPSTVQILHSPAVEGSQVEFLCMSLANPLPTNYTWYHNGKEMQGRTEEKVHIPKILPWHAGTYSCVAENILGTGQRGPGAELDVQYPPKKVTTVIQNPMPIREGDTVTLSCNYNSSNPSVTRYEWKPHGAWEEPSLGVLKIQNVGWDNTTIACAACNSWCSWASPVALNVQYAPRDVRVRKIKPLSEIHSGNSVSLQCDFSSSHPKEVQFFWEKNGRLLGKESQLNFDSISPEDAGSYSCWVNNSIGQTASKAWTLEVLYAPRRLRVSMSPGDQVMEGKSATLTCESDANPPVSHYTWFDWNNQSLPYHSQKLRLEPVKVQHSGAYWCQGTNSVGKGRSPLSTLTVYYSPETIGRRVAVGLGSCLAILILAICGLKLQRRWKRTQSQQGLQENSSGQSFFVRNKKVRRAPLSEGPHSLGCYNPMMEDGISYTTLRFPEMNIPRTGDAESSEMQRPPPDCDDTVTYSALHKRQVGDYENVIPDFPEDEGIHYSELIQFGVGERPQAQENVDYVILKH
# Chain of UniProt P38489 (whole entry, looked up): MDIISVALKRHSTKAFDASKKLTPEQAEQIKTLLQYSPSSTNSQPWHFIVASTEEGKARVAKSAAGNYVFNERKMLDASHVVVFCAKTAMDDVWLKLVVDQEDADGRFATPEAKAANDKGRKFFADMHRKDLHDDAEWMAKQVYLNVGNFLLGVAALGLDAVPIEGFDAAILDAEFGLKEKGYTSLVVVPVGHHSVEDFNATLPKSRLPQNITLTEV
Structure (SMILES),target,test,test system,setting,how to read,endpoint,value
CC(C)CC(O)(CC(C)C)c1cn(C(=O)N2CCCC2)nn1,"Prolyl endopeptidase-like (Prepl, Mus musculus, UniProt Q8C167)","enzyme activity, inhibitor, item: Prepl","mouse, brain","i.p., 0.8 mg/kg, 4 h, protein level",reference: vehicle,ratio of ratios,0.57
CC[C@H](C)[C@@H]1NC(=O)[C@H](CC(N)=O)NC(=O)[C@@H]2CCCN2C(=O)[C@@H](NC(=O)[C@H](CC(N)=O)NC(=O)[C@@H](N)CCC(N)=O)COC(=O)[C@H](CCSC)NC(=O)[C@H](Cc2c[nH]c3ccccc23)NC(=O)[C@H](CCC(N)=O)NC(=O)CNC(=O)CN(Cc2ccccc2)C1=O,"Fsr quorum sensing protein (Enterococcus faecalis, UniProt A0ACD6TCR9)","reporter gene, agonist",,,reference: compound over native peptide,EC50 ratio,> 100 fold
CCCC[C@H]1CNCCN1C[C@@H]1CCCN1C[C@@H](Cc1ccc2ccccc2c1)N1CCN(CCc2ccc(Cl)c(Cl)c2)[C@H]([C@@H](C)O)C1,Oprd1,radioligand binding,rat brain membranes,"500 nM, pH 7.5, 25 °C, together with: 2 nM [3H]DPDPE",,remaining binding,85.8%
CC12CCC(=O)C=C1CCC1C2C=C(c2cccnc2)C2(C)C(=O)CCC12 (centres unmarked),"7-alpha-hydroxycholest-4-en-3-one 12-alpha-hydroxylase (Homo sapiens, UniProt Q9UNU6, W281F)",inhibitor,,"80 µM, together with: 7α-hydroxycholest-4-en-3-one 0.54 µM",,remaining activity,58.3 ± 1.8%
CON(C(=O)c1cn(C)nc1C(F)F)C(C)Cc1c(Cl)cc(Cl)cc1Cl (centres unmarked),"SDHD/SDHC/SDHB (Sus scrofa, UniProt A5GZW8+D0VWV4+Q007T0)","enzyme activity, inhibitor, DCIP reduction",pig,"1 µM, together with: DCIP 80 µM",,reaction velocity,0.00547 µM/s and 0.00654 µM/s
COc1ccccc1-c1n[nH]c2nc(N[C@H]3CC[C@H](NS(=O)(=O)CC(C)C)CC3)ncc12,"cdc2-related kinase 12 (Leishmania donovani, UniProt A0A3S7WQK2)",kinobead competition pull-down,"Leishmania donovani, cell extract",0.0032 µM,reference: vehicle,remaining binding,39%
C#CCCCCOc1ccc2c(c1)CCCN2C(=O)CCl,"DDB1 (Homo sapiens, UniProt Q16531)",mass spectrometry profiling,H460 cell lysate,"100 µM over 10 µM, UniProt Q16531",reference: high over low concentration,reactivity ratio,1.62
CC(C)C[C@@H](N)C(=O)NCC(=O)N[C@H](C)C(=O)N[C@H](CO)C(=O)N[C@H](Cc1c[nH]c2ccccc12)C(=O)N[C@H](Cc1c[nH]cn1)C(=O)N[C@H](CCCNC(=N)N)C(=O)N1CCC[C@@H]1C(=O)N[C@H](CC(=O)O)C(=O)N[C@H](CCCCN)C(=O)N[C@H](CCCCN)C(=O)N[C@H](CCCNC(=N)N)C(=O)NCCCCCC(=O)N[C@@H](CCCCN)C(=O)N[C@@H](CCCNC(=N)N)C(=O)N[C@@H](CCCCN)C(=O)N[C@@H](CS)C(=O)N[C@H](C(=O)N[C@@H](CCCNC(=N)N)C(=O)N1CCC[C@H]1C(=O)N[C@@H](CC(N)=O)C(=O)N[C@@H](CC(N)=O)C(=O)N[C@@H](CC(N)=O)C(=O)N[C@H](C(N)=O)[C@@H](C)O)[C@@H](C)O,"CCR5 (Homo sapiens, UniProt P51681)",,CHO expressing CCR5,"50 µM, 40 min, 4 °C, together with: mAb 45523 4 µg/mL",,inhibition of binding,10.4%
CC(C)[C@H]1NC(=O)C[C@H]2/C=C/CCSSC[C@@H](NC1=O)C(=O)N[C@H](Cc1cccc3ccccc13)C(=O)NCC(=O)O2,"ALK (Homo sapiens, UniProt Q9UM73, C1156Y)","enzyme activity, inhibitor",,10 µM,,inhibition,-1%
O=C(O)c1ccc(-c2nc(-c3ccccc3Cl)c3sccn23)cc1,"Gabrg2/Gabra1, benzodiazepine site (Rattus norvegicus, UniProt P18508+P62813)",radioligand binding,,10 µM,reference: control,specific binding,102%
Cc1ncc([N+](=O)[O-])n1CC(O)Cn1cc(CO[C@]2(C(=O)O)C[C@H](O)[C@@H](NC(=O)CF)[C@H]([C@H](O)[C@H](O)CNC(=O)c3ccc(Oc4ccccc4)cc3)O2)nn1 (some centres unmarked),"CD22 (Homo sapiens, UniProt P20273)",isothermal titration calorimetry,,,,ΔH,-10.2 ± 0.02 kcal/mol
O=C(O)c1ccccc1/C=N/Nc1nc(-c2ccccc2Cl)cs1,"CSNK1E (Homo sapiens, UniProt P49674)","enzyme activity, inhibitor",,1 µM,,inhibition,10.5%
C=C(c1ccccc1)[C@H](N)P(=O)(O)O,"PAL1 (Petroselinum crispum, UniProt P24481)","L-Phe deamination, inhibitor, UV steady-state kinetics",,"100 µM, together with: L-Phe 5 mM",,reaction rate reduction,69%
CC[C@H](C)[C@H](NC(C)=O)C(=O)N[C@@H](CCC(=O)O)C(=O)N1CCC[C@H]1C(=O)NC(CS(=O)(=O)O)P(=O)(Oc1ccccc1)c1ccccc1 (some centres unmarked),"Granzyme B (GZMB, Homo sapiens, UniProt P10144)","enzyme activity, inhibitor, FRET",,,,kinact/KI,138000 M⁻¹ s⁻¹
CN(C)CCCSC(=S)N1CCN(C(=O)/C=C/c2coc3ccccc3c2=O)CC1,"Nucleoprotein (N, Tomato spotted wilt virus, UniProt P25999, Y184A)","binding, microscale thermophoresis",,0.9766 µM,dose series,MST response,837 a.u.
O=C1NC(=O)c2c1c1cc(F)c[n+]3c1c1c2c2cc(O)ccc2[n]1[Ru-4]312([N]=C=S)[S+]3CC[S+]1CC[S+]2CC3 (centres unmarked),"MELK (Homo sapiens, UniProt Q14680)",enzyme activity,,"100 nM, human enzyme, together with: 10 µM ATP",reference: untreated,remaining activity,1%
CN(C)[C@H]1C[C@@]23CC[C@@]4(O2)C(=CC[C@]2(C)[C@@H](c5ccc6ccncc6c5)CC[C@H]24)C=C3[C@@H](O)[C@@H]1O,"TP53RK (Homo sapiens, UniProt Q96S44)","ATP probe labelling, inhibitor, KiNativ profiling",,1 µM,,inhibition,21.5%
O=C(N[C@@H]1c2ccccc2C[C@H]1N1CCCC1)c1ccc(-c2ccnc3[nH]ccc23)nc1,"ROCK1 (Homo sapiens, UniProt Q13464)","binding, competition with immobilised ligand",,3 µM,,remaining binding,0.1%
COc1c(N2CC3CCCNC3C2)c(F)cc2c(=O)c(C(=O)OCc3cnc([N+](=O)[O-])n3C)cn(C3CC3)c12 (centres unmarked),"nfsB (Escherichia coli K-12, UniProt P38489)",substrate,,together with: NADH 100 µM,,initial rate,0.08 ± 0.003 µM/min
COCC1CCCCN1C(=O)n1cc(C(O)(c2ccccc2)c2ccccc2)nn1 (centres unmarked),"Acyl-coenzyme A thioesterase 2, mitochondrial (Acot2, Mus musculus, UniProt Q9QYR9)","probe labelling, inhibitor, competitive ABPP-SILAC, item: Acot2",mouse T cells,"concentration not given, 4 h, protein level","reference: treated over DMSO cells, lower = stronger inhibition",SILAC activity ratio,1.08
CC[C@@H](C)[C@@H]1CN([C@@H](CC2CCCCC2)CN2CCC[C@H]2CN2CCNC[C@@H]2Cc2ccc3ccccc3c2)CCN1CCCC1CCCC1,Oprd1,radioligand binding,rat brain membranes,"500 nM, pH 7.5, 25 °C, together with: 2 nM [3H]DPDPE",,remaining binding,97.3%
N[C@H](Cc1ccccc1)P(=O)(O)O,"Phenylalanine/tyrosine ammonia-lyase (PAL, Rhodotorula toruloides, UniProt P11544)",inhibitor,,"200 µM, together with: L-Phe 5 mM",,reaction rate reduction,40%
C=CC(=O)Nc1cc(-c2ccc(C(=O)N3CCCC(O)(CC)C3)cc2)ccc1F (centres unmarked),"DNA dC->dU-editing enzyme APOBEC-3B, C-terminal domain (Homo sapiens, UniProt Q9UH17)","covalent adduct, intact protein MS, item: mass +397 Da adduct of 25735 Da",,"500 µM, 1 h, 20-fold molar excess",,adducted protein,35% and 44%
CC[C@@H](C)[C@@H]1CN([C@H](Cc2ccc3ccccc3c2)CN2CCC[C@H]2CN2CCNC[C@@H]2CO)CCN1CCC12CC3CC(CC(C3)C1)C2,Oprd1,radioligand binding,rat brain membranes,"500 nM, pH 7.5, 25 °C, together with: 2 nM [3H]DPDPE",,remaining binding,102%
CS(C)(=O)=Nc1ccc(-c2ccc(-c3nc4cc(O[C@@H]5CO[C@H]6[C@@H]5OC[C@H]6O)[nH]c4cc3F)cc2)cc1,"PRKG1 (Homo sapiens, UniProt Q13976)","enzyme activity, inhibitor",,10 µM,,inhibition,-13%
CCOC(=O)[C@@H]1Cc2c(cc([N+](=O)[O-])cc2[N+](=O)[O-])[C@H](O)[C@]12C(=O)Nc1ccc(Br)cc12,"STK32C (Homo sapiens, UniProt Q86UX6)","binding, competition with immobilised ligand",,0.1 µM,,remaining binding,67%
CC[C@H](C)[C@@H]1NC(=O)[C@H](CC(C)C)NC(=O)CNC(=O)[C@H](CCCNC(=N)N)NC(=O)[C@H](Cc2c[nH]c3ccccc23)NC(=O)[C@H](CCSC)NC(=O)[C@H](CO)NC(=O)[C@H](CCC(=O)O)NC(=O)[C@H](Cc2ccccc2)NC(=O)[C@H](CC(=O)O)NC(=O)[C@H]([C@@H](C)O)NC(=O)CNC(=O)[C@H](CCC(=O)O)NC(=O)[C@H]([C@@H](C)O)NC(=O)CNC(=O)[C@H](CC(=O)O)NC1=O,"MDM2 (Homo sapiens, UniProt Q00987)","MDM2-ligand binding, inhibitor, AlphaLISA competition",,"0.01221 µM, together with: GST-tagged MDM2 ligand",lower = stronger inhibition,AlphaLISA signal,11600 a.u. and 11900 a.u. and 11100 a.u.
CC(=O)N[C@@H](CC(=O)O)C(=O)N[C@@H](CCC(=O)O)C(=O)N[C@H](C(=O)N[C@@H](CC(=O)O)C(=O)Nc1ccc2c(C)cc(=O)oc2c1)C(C)C,"ACHE (Homo sapiens, UniProt P22303)",,biochemical,concentration not given,,activity class,inactive
N[C@H](C(=O)N1CCCC1)C1CCN(c2nccc3c(-c4ncc(Cl)cc4Cl)cccc23)CC1,"ADRB1 (Homo sapiens, UniProt P08588)","functional response, agonist",,10 µM,,response,-1%
